{"data": "Experimental data pooled from the literature", "note": "Lines come from different studies, so protocols differ. ± gives the spread as reported."}
{"Compound": "CC(=O)N[C@H]1CSC(=O)[C@H](Cc2ccccc2)NC(=O)[C@H](Cc2ccccc2)NC(=O)CCCCCCCCNC1=O", "target": "AgrC (Staphylococcus aureus)", "assay": "reporter gene, inhibitor", "system": "Staphylococcus aureus, AH1747 (MW2)", "setting": "24 h", "IC50": "0.125 µM"}
{"Compound": "NC[C@@H]1O[C@H](O[C@H]2[C@@H](O)[C@H](O[C@@H]3[C@@H](O)[C@H](N)C[C@H](N)[C@H]3O[C@H]3O[C@@H]4COCO[C@H]4[C@H](O)[C@H]3N)O[C@@H]2CO)[C@H](N)[C@@H](O)[C@@H]1O", "target": "Mycobacterium smegmatis ribosome G1491A", "assay": "translation, cell-free luciferase synthesis", "IC50": "120 ± 49.6 µg/mL"}
{"Compound": "CCS(=O)(=O)[C@H]1[C@H](O)[C@@H](N)[C@@H](O[C@H]2[C@H](O[C@@H]3O[C@H](CO)[C@@H](O[C@H]4O[C@@H](CN)[C@@H](O)[C@H](O)[C@H]4N)[C@H]3O)[C@@H](O)[C@H](N)C[C@@H]2N)O[C@@H]1CO", "target": "bacterial hybrid ribosome, human mitochondrial A1555G A site", "assay": "cell-free translation, inhibitor", "IC50": "175 µg/mL"}
{"Compound": "CCO[C@H]1[C@H](O)[C@@H](N)[C@@H](O[C@H]2[C@H](O[C@@H]3O[C@H](CO)[C@@H](O[C@H]4O[C@@H](CN)[C@@H](O)[C@H](O)[C@H]4N)[C@H]3O)[C@@H](O)[C@H](N)C[C@@H]2N)O[C@@H]1CO", "target": "Mycobacterium smegmatis ribosome G1491A", "assay": "translation, cell-free luciferase synthesis", "IC50": "40.8 ± 16.9 µg/mL"}
{"Compound": "NC[C@@H]1O[C@H](O[C@H]2[C@@H](O)[C@H](O[C@@H]3[C@@H](O)[C@H](N)C[C@H](N)[C@H]3O[C@H]3O[C@H](CO)[C@@H](SCCF)[C@H](O)[C@H]3N)O[C@@H]2CO)[C@H](N)[C@@H](O)[C@@H]1O", "target": "wild-type bacterial ribosome", "assay": "cell-free translation, inhibitor", "IC50": "0.06 µg/mL"}
{"Compound": "CO[C@H]1[C@H](O)[C@@H](N)[C@@H](O[C@H]2[C@H](O[C@@H]3O[C@H](CO)[C@@H](O[C@H]4O[C@@H](CN)[C@@H](O)[C@H](O)[C@H]4N)[C@H]3O)[C@@H](O)[C@H](N)C[C@@H]2N)O[C@@H]1CO", "target": "Mycobacterium smegmatis ribosome G1491A", "assay": "translation, cell-free luciferase synthesis", "IC50": "69 ± 11.5 µg/mL"}
{"Compound": "CC(=O)N[C@H]1CNC(=O)[C@H](Cc2ccccc2)NC(=O)[C@H](Cc2ccccc2)NC(=O)COCCOCCNC1=O", "target": "AgrC (Staphylococcus aureus)", "assay": "reporter gene, inhibitor", "system": "Staphylococcus aureus, AH1677 (USA300 LAC)", "setting": "24 h", "IC50": "> 10 µM"}
{"Compound": "CCCS[C@H]1[C@H](O)[C@@H](N)[C@@H](O[C@H]2[C@H](O[C@@H]3O[C@H](CO)[C@@H](O[C@H]4O[C@@H](CN)[C@@H](O)[C@H](O)[C@H]4N)[C@H]3O)[C@@H](O)[C@H](N)C[C@@H]2N)O[C@@H]1CO", "target": "bacterial hybrid ribosome, human cytoplasmic A site", "assay": "cell-free translation, inhibitor", "IC50": "130 µg/mL"}
{"Compound": "CC(=O)N[C@H]1CNC(=O)[C@H](Cc2ccccc2)NC(=O)[C@H](Cc2ccccc2)NC(=O)CCCCCCCNC1=O", "target": "AgrC (Staphylococcus aureus)", "assay": "reporter gene, inhibitor", "system": "Staphylococcus aureus, AH1747 (MW2)", "setting": "24 h", "IC50": "0.573 µM"}
{"Compound": "CCCCCCCCCCCCCCCC(=O)NCCCC[C@H](NC(=O)[C@H](CCCNC(=N)N)NC(=O)[C@H](Cc1ccc(O)cc1)NC(=O)[C@H](CC(C)C)NC(=O)[C@H](CCCNC(=N)N)NC(=O)CNS(=O)(=O)c1ccc(N)cc1)C(N)=O", "target": "70S ribosome (Escherichia coli)", "assay": "protein synthesis, cell-free translation", "setting": "4 h, 37 °C", "IC50": "0.0195 ± 0.00277 µM"}
{"Compound": "CC[C@H](C)[C@H](NC(=O)[C@H](CCCCN)NC(=O)[C@@H](NC(=O)[C@H](CCC(N)=O)NC(=O)[C@H](CCCNC(=N)N)NC(=O)[C@H](CC(C)C)NC(=O)CNC(=O)[C@H](Cc1ccccc1)NC(=O)CNC(=O)[C@H](Cc1ccc(O)cc1)NC(=O)CNC(=O)[C@H](CCCCN)NC(=O)[C@@H](NC(=O)[C@H](Cc1ccccc1)NC(=O)[C@@H](NC(=O)[C@H](CC(=O)O)NC(=O)[C@@H](N)CCCNC(=N)N)C(C)C)[C@@H](C)O)[C@@H](C)CC)C(=O)N[C@@H](Cc1c[nH]c2ccccc12)C(=O)N[C@@H](Cc1ccccc1)C(=O)N[C@@H](CCC(N)=O)C(=O)N[C@@H](CC(N)=O)C(=O)N[C@@H](CCCNC(=N)N)C(=O)N[C@@H](CCCNC(=N)N)C(=O)N[C@@H](CCSC)C(=O)N[C@@H](CCCCN)C(=O)N[C@@H](Cc1c[nH]c2ccccc12)C(=O)N[C@@H](CCCCN)C(=O)N[C@@H](CCCCN)C(=O)O", "target": "cell death", "assay": "PI staining flow cytometry", "system": "MEC1", "setting": "90 min", "IC50": "3.3 µM"}
{"Compound": "CC[S+]([O-])C1C(CO)OC(OC2C(N)CC(N)C(O)C2OC2OC(CO)C(OC3OC(CN)C(O)C(O)C3N)C2O)C(N)C1O (mixture of isomers)", "target": "wild-type bacterial ribosome", "assay": "cell-free translation, inhibitor", "IC50": "0.5 µg/mL"}
{"Compound": "NC[C@@H]1O[C@H](O[C@H]2[C@@H](O)[C@H](O[C@@H]3[C@@H](O)[C@H](N)C[C@H](N)[C@H]3O[C@H]3O[C@H](CO)[C@@H](OCCO)[C@H](O)[C@H]3N)O[C@@H]2CO)[C@H](N)[C@@H](O)[C@@H]1O", "target": "Mycobacterium smegmatis ribosome G1491A", "assay": "translation, cell-free luciferase synthesis", "IC50": "5.99 ± 1.19 µg/mL"}
{"Compound": "CC(C)CS[C@H]1[C@H](O)[C@@H](N)[C@@H](O[C@H]2[C@H](O[C@@H]3O[C@H](CO)[C@@H](O[C@H]4O[C@@H](CN)[C@@H](O)[C@H](O)[C@H]4N)[C@H]3O)[C@@H](O)[C@H](N)C[C@@H]2N)O[C@@H]1CO", "target": "bacterial hybrid ribosome, human mitochondrial A1555G A site", "assay": "cell-free translation, inhibitor", "IC50": "150 µg/mL"}
{"Compound": "CC1OCC2OC(OC3C(N)CC(N)C(O)C3OC3OC(CO)C(OC4OC(CN)C(O)C(O)C4N)C3O)C(N)C(O)C2O1 (stereo not shown)", "target": "Mycobacterium smegmatis ribosome G1491A", "assay": "translation, cell-free luciferase synthesis", "IC50": "41.8 ± 7.39 µg/mL"}
{"Compound": "CC[C@@H]1CN2CCc3c([nH]c4cccc(OC)c34)[C@@H]2C[C@@H]1/C(=C\\OC)C(=O)OC", "target": "anti-compound rabbit polyclonal IgG", "assay": "antibody binding, competitive indirect ELISA", "setting": "1× PBS antibody diluent", "IC50": "2.25 µg/mL"}
{"Compound": "Cc1cc(Nc2cc(CN(C)C)cc(NC(=O)c3cccc(Nc4ccnc5ccccc45)c3)c2)nc(N)n1", "target": "human DNA polymerase theta", "assay": "inhibitor", "IC50": "68 µM"}
{"Compound": "NC[C@@H]1O[C@H](O[C@H]2[C@@H](O)[C@H](O[C@@H]3[C@@H](O)[C@H](N)C[C@H](N)[C@H]3O[C@H]3O[C@H](CO)[C@@H](CCO)[C@H](O)[C@H]3N)O[C@@H]2CO)[C@H](N)[C@@H](O)[C@@H]1O", "target": "bacterial hybrid ribosome, human cytoplasmic A site", "assay": "cell-free translation, inhibitor", "IC50": "51 µg/mL"}
{"Compound": "COCO[C@H]1[C@H](O)[C@@H](N)[C@@H](O[C@H]2[C@H](O[C@@H]3O[C@H](CO)[C@@H](O[C@H]4O[C@@H](CN)[C@@H](O)[C@H](O)[C@H]4N)[C@H]3O)[C@@H](O)[C@H](N)C[C@@H]2N)O[C@@H]1CO", "target": "Mycobacterium smegmatis ribosome G1491A", "assay": "translation, cell-free luciferase synthesis", "IC50": "11.4 ± 0.55 µg/mL"}
{"Compound": "CC(=O)N[C@H]1CSC(=O)[C@H](Cc2ccccc2)NC(=O)[C@H](Cc2ccccc2)NC(=O)COCCOCCNC1=O", "target": "AgrC (Staphylococcus aureus)", "assay": "reporter gene, inhibitor", "system": "Staphylococcus aureus, AH1872 (MN EV)", "setting": "24 h", "IC50": "5.94 µM"}
{"Compound": "CCCCCCCCC(=O)NCc1ccc(O)c(OC)c1", "target": "mouse mAb 1-G12", "assay": "antibody binding, indirect competitive ELISA", "setting": "with: coating antigen 3-OVA", "IC50": "> 4 µg/mL"}
{"Compound": "CC1(C)C(/C=C(\\Cl)C(F)(F)F)C1C(=O)OC(C#N)c1cccc(Oc2ccccc2)c1 (stereo not shown)", "target": "glutathione S-transferase, Vaccinium arctostaphylos", "assay": "enzyme activity, inhibitor", "setting": "with: CDNB and GSH", "IC50": "530 µM"}
{"Compound": "NC[C@@H]1O[C@H](O[C@H]2[C@@H](O)[C@H](O[C@@H]3[C@@H](O)[C@H](N)C[C@H](N)[C@H]3O[C@H]3O[C@H](CO)[C@@H](OCC(O)CO)[C@H](O)[C@H]3N)O[C@@H]2CO)[C@H](N)[C@@H](O)[C@@H]1O (stereo partly shown)", "target": "Mycobacterium smegmatis ribosome G1491C", "assay": "translation, cell-free luciferase synthesis", "IC50": "67.3 ± 21.2 µg/mL"}
{"Compound": "CC(C)S[C@H]1[C@H](O)[C@@H](N)[C@@H](O[C@H]2[C@H](O[C@@H]3O[C@H](CO)[C@@H](O[C@H]4O[C@@H](CN)[C@@H](O)[C@H](O)[C@H]4N)[C@H]3O)[C@@H](O)[C@H](N)C[C@@H]2N)O[C@@H]1CO", "target": "bacterial hybrid ribosome, human cytoplasmic A site", "assay": "cell-free translation, inhibitor", "IC50": "111 µg/mL"}
{"Compound": "CC[C@H](C)[C@H](NC(=O)[C@H](CCCCN)NC(=O)[C@@H](NC(=O)[C@H](CCC(N)=O)NC(=O)[C@H](CCCNC(=N)N)NC(=O)[C@H](CC(C)C)NC(=O)CNC(=O)[C@H](Cc1ccccc1)NC(=O)CNC(=O)[C@H](Cc1ccc(O)cc1)NC(=O)CNC(=O)[C@H](CCCCN)NC(=O)[C@@H](NC(=O)[C@H](Cc1ccccc1)NC(=O)[C@@H](NC(=O)[C@H](CC(=O)O)NC(=O)[C@H](CCCNC(=N)N)NC(=O)[C@H](C)NC(=O)[C@H](CO)NC(=O)[C@H](CCCCN)NC(=O)CNC(=O)[C@H](CC(C)C)NC(=O)[C@H](CC(=O)O)NC(=O)[C@H](C)NC(=O)[C@H](Cc1ccc(O)cc1)NC(=O)[C@@H](NC(=O)[C@@H]1CCCN1C(=O)[C@@H]1CCCN1C(=O)[C@@H](NC(=O)[C@H](C)NC(=O)[C@@H](N)CCSC)C(C)C)[C@@H](C)O)C(C)C)[C@@H](C)O)[C@@H](C)CC)C(=O)N[C@@H](Cc1c[nH]c2ccccc12)C(=O)N[C@@H](Cc1ccccc1)C(=O)N[C@@H](CCC(N)=O)C(=O)N[C@@H](CC(N)=O)C(=O)N[C@@H](CCCNC(=N)N)C(=O)N[C@@H](CCCNC(=N)N)C(=O)N[C@@H](CCSC)C(=O)N[C@@H](CCCCN)C(=O)N[C@@H](Cc1c[nH]c2ccccc12)C(=O)N[C@@H](CCCCN)C(=O)N[C@@H](CCCCN)C(=O)O", "target": "cell death", "assay": "PI staining flow cytometry", "system": "MEC1", "setting": "90 min", "IC50": "4.2 µM"}
